Experimental data gathered from unrelated publications.
A part holds a random share of what one study measured.

Study 1
Target: Phosphate system positive regulatory protein PHO4, full length, GST-tagged (PHO4, Saccharomyces cerevisiae, UniProt P07270, residues 1-312)
Sequence of UniProt P07270 (whole entry, looked up): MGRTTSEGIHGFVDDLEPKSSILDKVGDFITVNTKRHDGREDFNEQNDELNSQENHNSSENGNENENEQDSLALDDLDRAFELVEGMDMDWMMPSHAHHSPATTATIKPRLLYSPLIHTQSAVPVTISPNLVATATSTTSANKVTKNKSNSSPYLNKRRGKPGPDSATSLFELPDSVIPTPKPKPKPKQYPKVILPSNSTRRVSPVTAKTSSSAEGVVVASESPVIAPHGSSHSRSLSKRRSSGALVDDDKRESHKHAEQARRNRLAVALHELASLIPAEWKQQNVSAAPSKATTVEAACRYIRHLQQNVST
Method: competition protein-binding microarray
Form: double-stranded DNA, one strand shown
Matrix: in vitro
Tested at: 2 µM
Notes: whole 60-bp probe, lowest competitor level
Together with: Cbf1 competitor, 0.05 µM
Direction: higher = stronger binding
Endpoint: fluorescence intensity
Oligonucleotide = TGACAGTAATCTTTTCACGTGTGGATGGACAGACTCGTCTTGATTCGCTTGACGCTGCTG; value = 12100 a.u.
Oligonucleotide = CTAACGAAGGTTTGATCTGTGGGTGACAAGCCAAGTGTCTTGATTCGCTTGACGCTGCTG; value = 3470 a.u.
Oligonucleotide = TCGGTACGCGGCTCTAGCGTGCTTTTTGGAAGGGCAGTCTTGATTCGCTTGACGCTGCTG; value = 4640 a.u.
Oligonucleotide = TCAAAATTGGCATCGCACGTGAAGTTACATATATCCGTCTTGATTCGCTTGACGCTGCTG; value = 13700 a.u.
Oligonucleotide = TCCGATGGTACTCATGTAGCTGCCTCATACGAGACCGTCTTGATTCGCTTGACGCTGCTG; value = 4330 a.u.
Oligonucleotide = TGCGCAACAACTTGGTCGGTGGGTGTATGTCTAGAAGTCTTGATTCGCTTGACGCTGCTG; value = 4400 a.u.
Oligonucleotide = CGATGTTGAGGAAGTCCTGTGATATTTCAAATGTGGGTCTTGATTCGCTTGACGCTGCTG; value = 3750 a.u.
Oligonucleotide = GTCTTGTCTCATTGTCACGGTACTTTCCCCACTTCAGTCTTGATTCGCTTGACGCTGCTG; value = 4540 a.u.
Oligonucleotide = TGCGTATTCGCCCGACACGTGATGGGCGCAGATTGGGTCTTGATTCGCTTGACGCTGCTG; value = 14400 a.u.
Oligonucleotide = AAATTACTAAGTTGGTAGGTGGGTGACGCCGTATGAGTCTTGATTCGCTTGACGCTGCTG; value = 4140 a.u.
Oligonucleotide = CGGGGTTAAGTTTGAAAGGTGGGTGGCTTGCAGCAGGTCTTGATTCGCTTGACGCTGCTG; value = 4870 a.u.
Oligonucleotide = GTCTTGTCTCATTGAGGCGTGGGTGTCCCCACTTCAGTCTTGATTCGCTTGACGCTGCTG; value = 7320 a.u.
Oligonucleotide = GTCTTGTCTCATTGCGCGGTGGGTGTCCCCACTTCAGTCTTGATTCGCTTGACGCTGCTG; value = 4800 a.u.
Oligonucleotide = TGCGCAACAACTTGAACGGTGGGTGTATGTCTAGAAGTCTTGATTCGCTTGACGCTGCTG; value = 4270 a.u.
Oligonucleotide = GTACACACAAGGCGTCACATGAATTCTTGCCAAGTTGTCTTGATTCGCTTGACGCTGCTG; value = 5220 a.u.
Oligonucleotide = CTAACGAAGGTTTGCTTAGTGGGTGACAAGCCAAGTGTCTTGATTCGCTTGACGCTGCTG; value = 3590 a.u.
Oligonucleotide = CTTTCCCGATCTTGTCACCAGACTTTAGCACATTTGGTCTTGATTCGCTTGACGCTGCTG; value = 4010 a.u.
Oligonucleotide = AAGTCCTTTTCCCGTCACGTGGTCGTAGAACACTCTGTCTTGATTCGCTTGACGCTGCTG; value = 18400 a.u.
Oligonucleotide = CTATCCCTAGATTTCGTCGTGCCGAGACCCAAATAGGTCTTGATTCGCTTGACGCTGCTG; value = 5700 a.u.
Oligonucleotide = TTGTCTCATTACGTTCAGGTGACTACATTATCGAGCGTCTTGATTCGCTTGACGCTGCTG; value = 3620 a.u.
Oligonucleotide = GTCTTGTCTCATTTTCACGTGGATTTCCCCACTTCAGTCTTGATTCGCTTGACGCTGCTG; value = 12300 a.u.
Oligonucleotide = GTAATCCCAATTCACCACGTTCTTCCATGTTCAAGTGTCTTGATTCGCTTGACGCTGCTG; value = 16100 a.u.
Oligonucleotide = CACGATTGCTATCGCAGTAATAGCCTAACCTCCATCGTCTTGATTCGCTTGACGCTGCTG; value = 3620 a.u.
Oligonucleotide = CATACCCAACCTTTTCACGTGTCCTAAGATATTTGTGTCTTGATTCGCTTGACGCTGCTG; value = 14500 a.u.

Study 2
Target: RNA binding protein fox-1 homolog 2, RRM domain, GST-SBP tag (RBFOX2, Homo sapiens, UniProt O43251-10, residues 100-194)
Method: RNA Bind-n-Seq
Form: RNA
Matrix: in vitro
Tested at: 365 nM
Notes: natural RNA segment, single round, ends assumed
Reference: no-protein control
Direction: higher = stronger binding
Endpoint: RBNS enrichment (R)
Construct (chain): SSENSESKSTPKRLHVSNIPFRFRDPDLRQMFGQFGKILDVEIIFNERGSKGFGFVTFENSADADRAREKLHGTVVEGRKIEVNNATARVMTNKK
Oligonucleotide = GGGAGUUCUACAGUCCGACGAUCGAAGAGUCCCCUUCCUUGCGUGUCAGCACGGAUGCUGUGACUGCCACCUGCGUCCUCGUCAAGUGCCCGAGCUCGCCGCCGUGUGUGCUGCGCUGAGUGAGUUAUGAGGUUGGAAUUCUCGGGUGCCAA; value = 0.427
Oligonucleotide = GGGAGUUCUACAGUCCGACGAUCCUAAACAAGUGGCCGCGUGUAAAAACAGACAGCUCUGAGUCAAAUCUGGGCCCUUCCACAAGGGUCCUCUGAACCAAGCCCCACUCCCUUGCUAGGGGUGAAAGCAUUACUGGAAUUCUCGGGUGCCAA; value = 0.231
Oligonucleotide = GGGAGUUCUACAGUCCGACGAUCAAAAAAAAAAAAGAAAGAAAGAAAGAAAGAGAGAAAUUGAGGUGACCCUCCCUCAGCCUCCAGAGGACUGAGAUAUGUGUGUGCACCUCCCAUCUCGCUCAGCACAGGGUUGGAAUUCUCGGGUGCCAA; value = 0.522
Oligonucleotide = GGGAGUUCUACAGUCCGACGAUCCUGAUGUUGUGUCCGUUUUGUAUUUUAUCUUUUGUUAAAGAUACAUAAAUGACAAUACUUAACUGUGGUGGUUUGUAGCAUUAUUUCUAAUAUUUGGCAGAAAAGUUGUUUGGAAUUCUCGGGUGCCAA; value = 0.476
Oligonucleotide = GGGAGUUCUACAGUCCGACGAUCAAUUUCACUUUUUGAAACUAUAGAGAGAUCCCUUUCUGAUUAGCCUACAGAACUUAAAGUGAGGGAACCAUUUCCUCUCACAGACAAAGAGGCCUGGGAUAUUAGGACUUUGGAAUUCUCGGGUGCCAA; value = 0.238
Oligonucleotide = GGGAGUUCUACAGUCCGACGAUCUAUAGAACGGAUGUUUAGGUGAAGAAAUUGGUUCUUGGUUAUGUUUACAGCACUUGGGAUUGUGUUUUCUUGUACAUUUUGUAUUUUAAAAAUCUUUUAUAGGAGUGCAGUGGAAUUCUCGGGUGCCAA; value = 0.572
Oligonucleotide = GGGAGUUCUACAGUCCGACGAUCUAAUUUUAAUUCACAUCACCUGAAAAGUAAAACAACAGGCUUUGCCAAGUGGAUGCUUUUCAGUAACAGUGAAGUGGAGUGAAUACCAAAUGUUUGCCCUGGUGGUUCCUUGGAAUUCUCGGGUGCCAA; value = 0.269
Oligonucleotide = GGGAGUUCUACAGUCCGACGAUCCACUGACCGCAAGGGACACCAAGGACCGACCCUACUCACACCAGAAGCCCUACCAGGCUUCCCAGCAGCGCCACCUUCAGGCAGGAGUCAGAACUGUCCCCUUGGAGAUGUGGAAUUCUCGGGUGCCAA; value = 0.28
Oligonucleotide = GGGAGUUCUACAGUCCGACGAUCCUCCUCGGGCUCAUCACCGGUUCUGUGCCUGUGCUCUGUUGUGUUGGAGGGAAGGACUGGCGGUUCUGGUUUUUACUCUGUGAACUUUAUUUAAGGACAUUCUUUUUUAUUGGAAUUCUCGGGUGCCAA; value = 0.638

Study 3
Target: PABPC1L2, full length, GST fusion (mouse, UniProt A0ABA7IW68)
Method: RNAcompete
Form: RNA
Matrix: in vitro
Tested at: 20 nM
Notes: 7-mer, probes averaged, single round
Reference: mean of 7-mers
Direction: higher = stronger binding
Endpoint: 7-mer Z-score
Target sequence (chain): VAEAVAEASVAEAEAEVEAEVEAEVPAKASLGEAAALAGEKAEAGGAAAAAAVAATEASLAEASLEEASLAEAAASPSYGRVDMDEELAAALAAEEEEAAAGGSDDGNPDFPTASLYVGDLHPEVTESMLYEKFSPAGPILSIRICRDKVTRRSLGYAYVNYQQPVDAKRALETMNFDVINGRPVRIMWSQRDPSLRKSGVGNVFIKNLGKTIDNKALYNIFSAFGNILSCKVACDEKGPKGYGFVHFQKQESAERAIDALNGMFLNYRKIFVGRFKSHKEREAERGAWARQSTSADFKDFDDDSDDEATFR
Oligonucleotide = AGUCGCC; value = -0.333
Oligonucleotide = GUUAAUU; value = -0.204
Oligonucleotide = UACAAUU; value = -0.0826
Oligonucleotide = ACUCAGA; value = 0.046
Oligonucleotide = GCCCGAA; value = 0.258
Oligonucleotide = CCUUUUC; value = -0.436
Oligonucleotide = CAGCGGG; value = 0.231
Oligonucleotide = ACGGCCG; value = -0.251
Oligonucleotide = UUCGCUU; value = -0.499
Oligonucleotide = CCCUAAA; value = 0.695
Oligonucleotide = UAUGCCU; value = -0.282
Oligonucleotide = AAGACCC; value = 0.0895
Oligonucleotide = UCGAGUA; value = -0.17
Oligonucleotide = GGCCCCG; value = -0.441
Oligonucleotide = GGAGAAG; value = 0.157
Oligonucleotide = UCUAUAU; value = -0.182
Oligonucleotide = AUUAGUA; value = -0.0482
Oligonucleotide = CGGUUCC; value = -0.18
Oligonucleotide = AUGGAGG; value = 0.166
Oligonucleotide = AUCGAUC; value = -0.0935
Oligonucleotide = GCGCAUU; value = -0.229
Oligonucleotide = CCUGCAG; value = -0.393
Oligonucleotide = GCGUAGG; value = 0.00617
Oligonucleotide = CGGCAAU; value = -0.117
Oligonucleotide = AUAUACA; value = 0.146

Study 4
Target: Histone acetyltransferase KAT6A, winged helix 1, GST fusion (KAT6A, Homo sapiens, UniProt Q92794, residues 1-85)
Method: protein binding microarray
Form: double-stranded DNA, one strand shown
Matrix: in vitro
Tested at: not given
Notes: 8-mer, flanks averaged, mean of 2 arrays, mostly near background
Reference: not given
Direction: higher = stronger binding
Endpoint: E-score
Target sequence (chain): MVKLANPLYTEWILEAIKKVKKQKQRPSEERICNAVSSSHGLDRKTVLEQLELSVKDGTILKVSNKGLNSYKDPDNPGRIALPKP
Oligonucleotide = CCATTCCG; value = 0.0687
Oligonucleotide = CTAAAAGA; value = -0.249
Oligonucleotide = ATGCAGTC; value = -0.221
Oligonucleotide = CTACGAAC; value = -0.132
Oligonucleotide = TCTTAGAA; value = -0.138
Oligonucleotide = CCAATTGC; value = -0.0204
Oligonucleotide = ATCCACAC; value = -0.309
Oligonucleotide = CGGATATA; value = 0.147
Oligonucleotide = GTCCGGGA; value = 0.0699
Oligonucleotide = ATAACGGA; value = 0.0801
Oligonucleotide = ATCTAATA; value = -0.161
Oligonucleotide = CATCCCCG; value = 0.281
Oligonucleotide = CTGATTAA; value = -0.121
Oligonucleotide = CCTTGGTA; value = -0.0988
Oligonucleotide = GATCCTCC; value = -0.0239
Oligonucleotide = CTAACACA; value = -0.0883
Oligonucleotide = ATGTTTCC; value = 0.141
Oligonucleotide = CGTCCTCA; value = 0.044

For quick reference, copied from above (study 3):
Oligonucleotide = AAGACCC; value = 0.0895
Oligonucleotide = ACGGCCG; value = -0.251
Oligonucleotide = GCCCGAA; value = 0.258
Oligonucleotide = GCGCAUU; value = -0.229
Oligonucleotide = AUGGAGG; value = 0.166
Oligonucleotide = AUAUACA; value = 0.146
Oligonucleotide = ACUCAGA; value = 0.046
Oligonucleotide = UACAAUU; value = -0.0826
